Measured values collected from several papers.
Lines come from different studies, so protocols differ. Values joined by “and” are separate records of one study, mostly repeats; a detail may differ.
Cell line: Vero

Structure (SMILES)	assay	setting	quantity	result
Cc1cccn2c(=O)c3cc(C(=O)Nc4ccc(N(C)C)cc4)n(C)c3nc12	MTT	25 µM, 24 (unit not given)	viability	58%
Cc1nn(-c2ccc(Cl)cc2)c2c1C(c1ccc(Cl)cc1)C(C#N)=C(N)O2 (centres unmarked)	MTT	100 µM	viability	45.6%
N#C[Se]CC1Cc2c(Oc3ccc(F)cc3)cccc2O1 (racemic)	cell viability, AlamarBlue	–	EC50	> 10 µM
O=C1CCCCN1c1ccc(CO[C@@H]2COc3nc([N+](=O)[O-])cn3C2)cc1F	cytotoxicity	–	IC50	> 100 µg/mL
[O-][n+]1ccccc1SSc1cccc[n+]1[O-]	cytotoxicity	–	IC50	12.9 µM
Nc1nc(CC(O)c2ccccc2C(F)(F)F)c(Br)c(=O)[nH]1 (centres unmarked)	cell morphology alteration	–	minimum cytotoxic concentration	> 100 µM
COc1cc(C2C(C#N)=C(N)Oc3c2c(C)nn3-c2ccc(Cl)cc2)cc(OC)c1OC (centres unmarked)	MTT	100 µM	viability	48.4%
N#C[Se]CC1Cc2c(Oc3cccc(F)c3)cccc2O1 (racemic)	cell viability, AlamarBlue	–	EC50	> 10 µM
Nc1ncnc2c1ncn2C[C@H](O)CO	cell morphology alteration	–	minimum cytotoxic concentration	> 250 µM
NC(=O)c1ncn([C@@H]2O[C@H](CO)[C@@H](O)[C@H]2O)n1	measured: cell morphology	–	minimal cytotoxic concentration	> 250 µM
Cc1ccc(NC(=O)c2cc3c(=O)n4cccc(C)c4nc3n2C)cc1Cl	MTT	0.4 µM, 24 (unit not given)	viability	91.8%
O=C1CCCCN1c1ccc(CO[C@@H]2COc3nc([N+](=O)[O-])cn3C2)cn1	cytotoxicity	–	IC50	> 100 µg/mL
CCCc1nc(N)[nH]c(=O)c1Br	cell morphology alteration	–	minimum cytotoxic concentration	> 100 µM
Cn1c(C(=O)Nc2ccc(Cl)cc2)cc2c(=O)n3ccccc3nc21	MTT	6.3 µM, 24 (unit not given)	viability	75.7%
Cc1nn(-c2ccc(Cl)cc2)c2c1C(c1ccc(Cl)c(Cl)c1)C(C#N)=C(N)O2 (centres unmarked)	MTT	100 µM	viability	46.9%
O=C1CCCCN1c1ccc(CO[C@@H]2COc3nc([N+](=O)[O-])cn3C2)cc1	cytotoxicity	–	IC50	> 100 µg/mL
CC[C@@H](C)[C@H]1O[C@@H](c2c(O)c(-c3ccccc3)cn(OC)c2=O)[C@H](C)C[C@@H]1C	cytotoxicity, neutral red uptake	48 h	IC50	> 10 µg/mL
Cc1nn(-c2ccc(Cl)cc2)c2c1C(c1ccc(-c3ccccc3)cc1)C(C#N)=C(N)O2 (centres unmarked)	MTT	25 µM	viability	54.1%

Structure (SMILES)	assay	setting	quantity	result
CCCCc1nc(N)[nH]c(=O)c1Br	cell morphology alteration	–	minimum cytotoxic concentration	> 100 µM
Cn1c(C(=O)Nc2ccc3c(c2)OCCO3)cc2c(=O)n3ccccc3nc21	MTT	0.4 µM, 24 (unit not given)	viability	87.9%
O=C1CSCCN1c1ccc(CO[C@@H]2COc3nc([N+](=O)[O-])cn3C2)cc1	cytotoxicity	–	IC50	> 100 µg/mL
Cc1nn(-c2ccc(Cl)cc2)c2c1C(c1c(Cl)cccc1Cl)C(C#N)=C(N)O2 (centres unmarked)	MTT	25 µM	viability	53.4%
Nc1nc(CC(O)c2ccc(Cl)cc2)c(Br)c(=O)[nH]1 (centres unmarked)	cell morphology alteration	–	minimum cytotoxic concentration	> 100 µM
COc1ccc(C2C(C#N)=C(N)Oc3c2c(C)nn3-c2ccc(Cl)cc2)cc1 (centres unmarked)	MTT	25 µM	viability	59.8%
CC(=O)c1cccc(NC(=O)c2cc3c(=O)n4ccccc4nc3n2C)c1	MTT	6.3 µM, 24 (unit not given)	viability	66.3%
CC(C)C[C@H](NC(=O)[C@H](C)NC(=O)[C@@H](NC(=O)[C@H](CCCNC(=N)N)NC(=O)[C@H](CC(C)C)NC(=O)[C@H](Cc1c[nH]c2ccccc12)NC(=O)[C@@H]1CCCN1C(=O)[C@@H](N)CCCCN)C(C)C)C(=O)N[C@@H](CS)C(=O)N1CCC[C@H]1C(=O)NCC(=O)O	WST-1	4 µM, 24 h	viability	97.7% and 107% and 104%
N#C[Se]CC1Cc2cccc(Oc3ccc(F)cc3)c2O1 (racemic)	cell viability, AlamarBlue	–	EC50	> 10 µM
O=C1COCCN1c1ccc(CO[C@@H]2COc3nc([N+](=O)[O-])cn3C2)cc1	cytotoxicity	–	IC50	> 100 µg/mL
Cc1nn(-c2ccc(Cl)cc2)c2c1C(c1ccc(Cl)cc1Cl)C(C#N)=C(N)O2 (centres unmarked)	MTT	100 µM	viability	46%
N#C[Se]CC1Cc2ccc(Oc3ccc(F)cc3)cc2O1 (racemic)	cell viability, AlamarBlue	–	EC50	> 10 µM
Cc1nn(-c2ccc(Cl)cc2)c2c1C(c1ccc(I)cc1)C(C#N)=C(N)O2 (centres unmarked)	MTT	25 µM	viability	58.8%
O=C(Nc1ccccc1F)c1cc2c(=O)n3ccccc3nc2n1Cc1ccccc1	MTT	6.3 µM, 24 (unit not given)	viability	60.6%
Cc1cc(C)c(/C=C/c2nc(N)[nH]c(=O)c2Br)c(C)c1	cell morphology alteration	–	minimum cytotoxic concentration	100 µM
CCc1ccc(NC(=O)c2cc3c(=O)n4ccccc4nc3n2C)cc1	MTT	1.6 µM, 24 (unit not given)	viability	84.2%
N#C[C@@]1(n2ccc(N)nc2=O)O[C@H](COP(=O)(O)OP(=O)(O)OP(=O)(O)O)[C@@H](O)[C@H]1O	cellular egress	10 µM, 24 h preincubation	half-life	4.1 h

Some of these lines once more:
Structure (SMILES)	assay	setting	quantity	result
Cc1nn(-c2ccc(Cl)cc2)c2c1C(c1c(Cl)cccc1Cl)C(C#N)=C(N)O2 (centres unmarked)	MTT	25 µM	viability	53.4%
CC[C@@H](C)[C@H]1O[C@@H](c2c(O)c(-c3ccccc3)cn(OC)c2=O)[C@H](C)C[C@@H]1C	cytotoxicity, neutral red uptake	48 h	IC50	> 10 µg/mL
Cc1ccc(NC(=O)c2cc3c(=O)n4cccc(C)c4nc3n2C)cc1Cl	MTT	0.4 µM, 24 (unit not given)	viability	91.8%
NC(=O)c1ncn([C@@H]2O[C@H](CO)[C@@H](O)[C@H]2O)n1	measured: cell morphology	–	minimal cytotoxic concentration	> 250 µM
O=C1COCCN1c1ccc(CO[C@@H]2COc3nc([N+](=O)[O-])cn3C2)cc1	cytotoxicity	–	IC50	> 100 µg/mL
Cc1nn(-c2ccc(Cl)cc2)c2c1C(c1ccc(Cl)c(Cl)c1)C(C#N)=C(N)O2 (centres unmarked)	MTT	100 µM	viability	46.9%
